Results collected from several papers.
Each numbered part is a random draw from the data of one study; scales do not carry over between parts.

Block 1 — observed: enzyme activity; mode: inhibitor; concentration: 20 µM; setting: hit confirmation
Target: Replicase polyprotein 1ab, main protease (rep, Severe acute respiratory syndrome coronavirus 2, UniProt P0DTD1)
| SMILES | inhibition |
| --- | --- |
| CCn1c(-c2nonc2N)nc2cnc(Oc3cccc(NC(=O)c4ccc(OCCN5CCOCC5)cc4)c3)cc21 | 60.4% |
| C=CCNC(=O)c1cc([N+](=O)[O-])cc2c(=O)[nH]c(Nc3ccc(Cl)c(Cl)c3)nc12 | -4.9% |
| COCCCOc1ccnc(C[S+]([O-])c2nc3ccccc3[nH]2)c1C (stereo not drawn) | 94.2% |

Block 2 — mode: inhibitor; concentration: 20 µM
Target: Replicase polyprotein 1ab, nsp13 helicase (rep, Severe acute respiratory syndrome coronavirus 2, UniProt P0DTD1)
| SMILES | inhibition |
| --- | --- |
| CC(C)NCC(O)COc1ccc(COCCOC(C)C)cc1 (stereo not drawn) | 2.59% |
| CCCCCCCCCCC(C)(C)C(=O)Nc1c(OC)cc(OC)cc1OC | 12.4% |
| CC(C)n1nccc1-c1ncccc1COc1cccc(O)c1C=O | 0.78% |
| CCCCCCCCCCCCCCCC[N+](C)(C)CCN(Cc1ccc(OC)cc1)c1ncccn1 | 35.6% |
| CCCCC/C=C\C/C=C\C/C=C\C/C=C\CCCC(=O)Nc1ccc(O)cc1 | -1.29% |
| N#Cc1ccc(C(c2ccc(C#N)cc2)n2cncn2)cc1 | -1.16% |
| O=C(Oc1ccccc1C(=O)O)c1ccccc1O | 3.82% |
| CC1(C)C(=O)N(c2ccc(C#N)c(C(F)(F)F)c2)C(=O)N1CCCCO | -0.67% |
| Clc1ccc(C(Cn2ccnc2)OCc2ccc(Sc3ccccc3)cc2)c(Cl)c1 (stereo not drawn) | 5.59% |
| CCOC(=O)c1ccc(NC2CCCCC2)c(N)c1 | 1.77% |
| CN(C(=O)CN1C(=O)COc2cc(Cl)c(Cl)cc21)[C@@H](CN1CCCC1)c1ccc(-c2cccc(C(N)=O)c2)cc1 | 11% |
| OC[C@H]1O[C@@H](n2cnc3c(NC4CCCC4)ncnc32)[C@H](O)[C@@H]1O | 7.78% |
| NC(=O)CN1C[C@H](O)CC1=O | 7.82% |
| C[C@]12CC[C@H](O)C[C@H]1CC[C@@H]1[C@@H]2CC[C@]2(C)[C@@](O)(c3ccoc3)CC[C@]12O | 7.95% |
| CC(C)N1CCN(c2ccc(C(=O)c3c(-c4ccc(O)cc4)sc4cc(O)ccc34)cc2)CC1 | 3.34% |
| O=c1cc(N2CCOCC2)oc2c(-c3cccc4c3sc3ccccc34)cccc12 | 7.68% |
| Fc1ccc(CN2CCC(Nc3ccc(C(F)(F)F)nn3)CC2)cc1F | 0% |
| CCCN(CCC)CCc1ccc(OC)c(OCCc2ccccc2)c1 | 2.44% |
| COC(=O)C(N)CS (stereo not drawn) | -4.99% |
| C[N+]1(C)CCc2cc3c(cc2[C@H]1[C@@H]1OC(=O)c2c1ccc1c2OCO1)OCO3 | 2.22% |
| CCCCc1nc2cc(/C=C/C(=O)NO)ccc2n1CCN(CC)CC | -1.31% |
| C[C@H](NC(=O)[C@@H](O)c1cc(F)cc(F)c1)C(=O)N[C@@H]1C(=O)N(C)c2ccccc2-c2ccccc21 | 1.23% |
| Fc1ccccc1-c1nc2ccn(Cc3ccc(-c4ccc(C(F)(F)F)cc4C(F)(F)F)nn3)cc-2n1 | 3.34% |
| N[C@@H](Cc1c[nH]c2ccccc12)C(=O)O | 7.01% |
| CCCC1O[C@@H]2C[C@H]3[C@@H]4CCC5=CC(=O)C=C[C@]5(C)[C@H]4[C@@H](O)C[C@]3(C)[C@]2(C(=O)CO)O1 (stereo partly drawn) | 1.18% |

Block 3 — technique: protein-binding microarray; molecule type: double-stranded DNA, one strand shown; medium: in vitro; concentration: 2200 nM top; setting: 60-bp whole probe; together with: salmon DNA 0.4 mg/ml; baseline: random background probes; direction: higher = stronger binding; all sequences stand within: GCCTAGCAC … GTCTTGATTCGCTTGACGCTGCTG
Target: Interferon regulatory factor 7, full length, phosphomimetic (IRF7, Homo sapiens, UniProt Q92985, residues 1-503, S471D/S472D/S475D/S476D/S477D/S483D/S484D/S487D)
Residues (chain): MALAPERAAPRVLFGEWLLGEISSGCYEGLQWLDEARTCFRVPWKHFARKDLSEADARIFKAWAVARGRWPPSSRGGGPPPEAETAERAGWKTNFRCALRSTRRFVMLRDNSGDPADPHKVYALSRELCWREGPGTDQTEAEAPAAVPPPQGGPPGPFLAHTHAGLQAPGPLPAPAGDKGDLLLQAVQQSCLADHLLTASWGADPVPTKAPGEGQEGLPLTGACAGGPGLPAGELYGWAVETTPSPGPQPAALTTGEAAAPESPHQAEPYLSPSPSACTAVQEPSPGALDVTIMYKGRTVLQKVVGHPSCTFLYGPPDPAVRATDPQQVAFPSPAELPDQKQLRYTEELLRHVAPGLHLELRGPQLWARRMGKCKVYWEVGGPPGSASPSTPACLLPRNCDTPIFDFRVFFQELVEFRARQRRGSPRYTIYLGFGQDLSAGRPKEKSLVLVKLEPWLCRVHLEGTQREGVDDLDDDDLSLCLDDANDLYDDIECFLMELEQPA
| Oligonucleotide | fitted relative affinity [z-score] |
| --- | --- |
| CAAGTTTTTATTTTCTGAATGTGCTAG | 3.02 |
| CCCCTACTGTATTTGGCCAGGTGCTAG | 0.243 |
| TCAAGGTCCCTTTTCATACTGTGCTAG | 1.28 |
| GACGATATCCGACTGGAGACGTGCTAG | 0.125 |
| GTAGGTTTCGACACTGGGTTAGTGCTA | 2.22 |
| GACGGTATGGGACTGGGGACGTGCTAG | -0.558 |
| TAGAGTCTCAACCCCCAATAAGTGCTA | -0.137 |
| GTTCTACCTCTGCCTTTTGTGTGCTAG | 2.56 |

Block 4 — cell line: HEK-293T; organism: VSV pseudotyped with SARS-CoV-2 spike; concentration: 10 µM; time: 16 h
| Structure (SMILES) | pseudovirus infection |
| --- | --- |
| CC(C)NCC(O)COc1ccc(CCOCC2CC2)cc1 (stereo not drawn) | 128% |
| NS(=O)(=O)c1cc(C(=O)O)c(NCc2ccco2)cc1Cl | 94% |
| CN/C(=N/CCSCc1nc[nH]c1C)NC#N | 87.3% |

Block 5 — technique: protein binding microarray; molecule type: double-stranded DNA, one strand shown; medium: in vitro; concentration: not given; baseline: not given; direction: higher = stronger binding
Target: Histone acetyltransferase KAT6A, both winged helices, GST fusion (KAT6A, Homo sapiens, UniProt Q92794, residues 1-181)
Setting: 8-mer, flanks averaged, mean of 2 arrays, mostly near background
Construct (chain): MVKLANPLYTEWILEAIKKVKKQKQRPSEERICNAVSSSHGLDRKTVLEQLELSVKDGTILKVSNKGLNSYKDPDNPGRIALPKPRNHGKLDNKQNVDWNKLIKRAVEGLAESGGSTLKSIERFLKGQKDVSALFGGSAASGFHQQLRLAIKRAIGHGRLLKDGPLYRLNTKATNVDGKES
| Oligonucleotide | E-score |
| --- | --- |
| AGCAGTCC | -0.227 |
| ATCAACGC | 0.107 |
| GAGTAAGC | -0.108 |
| AACACATC | -0.0869 |
| CTAGATAC | 0.0573 |
| CACGTGAC | -0.0401 |
| AGCAAATA | -0.0908 |
| AGTGCCCA | -0.141 |

Block 6 — technique: RNA Bind-n-Seq; molecule type: RNA; medium: in vitro; concentration: 200 nM; setting: whole 134-nt RNA, ends assumed; together with: 150 mM KCl; baseline: input library; direction: higher = stronger binding
Target: Ras GTPase-activating protein-binding protein 1, full length (G3BP1, Homo sapiens, UniProt Q13283)
Chain of UniProt Q13283 (whole entry, looked up): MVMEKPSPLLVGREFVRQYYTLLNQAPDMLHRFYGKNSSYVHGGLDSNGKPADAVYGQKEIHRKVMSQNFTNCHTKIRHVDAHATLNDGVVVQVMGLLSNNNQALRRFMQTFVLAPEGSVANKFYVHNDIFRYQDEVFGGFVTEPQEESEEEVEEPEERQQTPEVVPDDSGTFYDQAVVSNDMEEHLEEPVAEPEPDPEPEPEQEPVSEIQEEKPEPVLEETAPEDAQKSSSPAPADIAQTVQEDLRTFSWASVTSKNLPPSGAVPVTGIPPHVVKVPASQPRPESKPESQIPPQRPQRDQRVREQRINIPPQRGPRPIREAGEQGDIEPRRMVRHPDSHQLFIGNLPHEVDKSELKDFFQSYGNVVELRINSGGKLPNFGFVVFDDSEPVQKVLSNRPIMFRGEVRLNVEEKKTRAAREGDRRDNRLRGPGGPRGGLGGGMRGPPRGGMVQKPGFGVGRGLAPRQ
| Oligonucleotide | log2 enrichment |
| --- | --- |
| GGGAGUUCUACAGUCCGACGAUCAAGUCCUGUGCUACACAUCGUAUGUACCGAAUCGGGUUUUGGGUUUUGGGUUUUGGAAAGUAUUAUGUUACGCCGUUCGGAUCUGCACUUUGGAAUUCUCGGGUGUCAAGG | -0.893 |
| GGGAGUUCUACAGUCCGACGAUCUGGGAGGUGGAUUUUGUUUAUUUUUUUAGCUCAUUUCCAGGGGUGGGAAUUUUUUUUUAAUAGGUGUCAUGAAUAAAGUUGUUUUUGAAAUGGAAUUCUCGGGUGUCAAGG | -0.0775 |
| GGGAGUUCUACAGUCCGACGAUCUGGAUUAGAGAGAAAUUGAAUUUUUUCUUACUUGAACUCCUACUAAAAAGUGAACUAAAUAUUUUAUUGUAGUAAUGGCAUAGAGGAGCCUGGAAUUCUCGGGUGUCAAGG | -0.274 |
| GGGAGUUCUACAGUCCGACGAUCACCAUGCAGGUGGGCAUCUUUGGGAAGUGGGGCAAGGGGGGGAUAGGGAGGGGGGUAACACUUUGGGCACAGGUGGUCCCAGGUCGUUUCUGGAAUUCUCGGGUGUCAAGG | 0.922 |

A few entries again (block 1):
| SMILES | inhibition |
| --- | --- |
| COCCCOc1ccnc(C[S+]([O-])c2nc3ccccc3[nH]2)c1C (stereo not drawn) | 94.2% |
| C=CCNC(=O)c1cc([N+](=O)[O-])cc2c(=O)[nH]c(Nc3ccc(Cl)c(Cl)c3)nc12 | -4.9% |
| CCn1c(-c2nonc2N)nc2cnc(Oc3cccc(NC(=O)c4ccc(OCCN5CCOCC5)cc4)c3)cc21 | 60.4% |
